Measurements of several laboratories.
± marks the error that the study gave.

`COC1CN([C@H]2CC[C@H]([C@@]3(C)Oc4c(Cl)cc(C(=O)NCc5c(SC)cc(C)[nH]c5=O)c(C)c4O3)CC2)C1` — result for “log2 fold change”: 2.32 (RNA-seq, item: TMEM108; human, whole blood; dose not given, 24 h; baseline: pretreatment baseline).
For `O=C(N/N=C/c1cc[n+](CC2CC2)c2ccccc12)c1cc(C(=O)N/N=C/c2cc[n+](CC3CC3)c3ccccc23)ncn1`, the ΔTm was 0.5 ± 0.3 °C (hp2 hairpin duplex DNA; FRET melting; 1 µM, with: ds26 10 µM).
`C=CC(=O)Nc1cccc(Cn2ncc3cnc(Nc4cnn(CCOC)c4)nc32)c1`: “percent of control” 98% (INSRR human; binding, KINOMEscan; 100 nM; lower = stronger binding).
For `Cc1ncsc1-c1ccc(C(C)NC(=O)C2CC(O)CN2C(=O)C(NC(=O)CCCCCCCCCCN2CCCC(Nc3ncc(Cl)c(Nc4ccccc4S(=O)(=O)C(C)C)n3)C2)C(C)(C)C)cc1` (stereo not drawn), “log2 fold change” read -1.27 (22Rv1; RNA-seq, item: NOL4L mRNA; concentration not given; baseline: DMSO).
The IC50 of `CNS(=O)(=O)Nc1nccc(Cc2c(C)c3ccc(Oc4ncccc4F)cc3oc2=O)c1F` is reported as over 1 µM (U-138 MG; cell viability, inhibitor, CellTiter-Glo; 7 days).
`C=CC(=O)N1[C@H](c2ccc3c(c2)OCO3)c2[nH]c3ccccc3c2C[C@@H]1C(=O)N1CCN(C)CC1` gave a relative co-enrichment of 101% (human cyclin E1 N112C-3xFLAG:CDK2; co-IP with TMT proteomics, item: NPM1; concentration not given, P06748; baseline: wild type DMSO).
The ΔTm of `O=C(N/N=C/c1ccc2c(ccc[n+]2Cc2ccccc2)c1)c1ccc2ccc(C(=O)N/N=C/c3ccc4c(ccc[n+]4Cc4ccccc4)c3)nc2n1` is reported as 1.3 ± 0.6 °C (hp2 hairpin duplex DNA; FRET melting; 1 µM).
`CN1CCCNC(=O)c2cccc(c2)C(=O)NCCCN(C)CCCNc2cccc3c2C(=O)c2cccc(c2C3=O)NCCC1`: “log2 fold change” 0.952 (SAS; RNA-Seq, item: DNAJB4 mRNA; 1 µM, 6 h; baseline: untreated cells).
With `O=C(N/N=C/c1ccc2c(ccc[n+]2Cc2ccccc2)c1)c1cncc(C(=O)N/N=C/c2ccc3c(ccc[n+]3Cc3ccccc3)c2)n1` the ΔTm was 11.4 ± 0.3 °C (MYC parallel G4 DNA; FRET melting; 1 µM, DNA 0.2 µM, with: duplex DNA competitor 10 µM).
For `Nc1ncc(-c2cc(-c3cnn(CC(F)(F)F)c3)ncc2F)nc1C(=O)NC1CNCC(F)C1` (stereo not drawn), the remaining binding was 90% (IRAK4; KINOMEscan; 1 µM; baseline: DMSO control).
`O=C(N/N=C/c1cc[n+](Cc2ccccc2)c2ccccc12)c1cccc(C(=O)N/N=C/c2cc[n+](Cc3ccccc3)c3ccccc23)c1` has a ΔTm of 0.9 ± 0.1 °C (hp2 hairpin duplex DNA; FRET melting; 1 µM).
For `O=C(CSc1cccc[n+]1[O-])c1ccccc1Br`, the Emax was 126% (Mus musculus; gene silencing, high-content imaging; LDR reporter GFP cells; 30 h, retest run 1).

Some of these lines once more:
The IC50 of `CNS(=O)(=O)Nc1nccc(Cc2c(C)c3ccc(Oc4ncccc4F)cc3oc2=O)c1F` is reported as over 1 µM (U-138 MG; cell viability, inhibitor, CellTiter-Glo; 7 days).
`CN1CCCNC(=O)c2cccc(c2)C(=O)NCCCN(C)CCCNc2cccc3c2C(=O)c2cccc(c2C3=O)NCCC1`: “log2 fold change” 0.952 (SAS; RNA-Seq, item: DNAJB4 mRNA; 1 µM, 6 h; baseline: untreated cells).
